Measured values from different studies.
Values joined by “and” are separate records of one study, mostly repeats; a detail may differ. ± marks the error that the study gave.

SMILES = O=C1N=C(N2CCOCC2)CN1c1ccc(Cl)cc1; system = beagle dog, female, plasma; setting = oral, 30 mg/kg, tablets, fed; endpoint = apparent oral clearance; result = 0.395 L/h/kg
SMILES = Cn1c(-c2ccc(C(N)=O)cc2F)nnc1C(C)(C)Oc1c(F)cc(Cl)cc1F; system = young Japanese adults, plasma; setting = oral, 20 mg single dose, day 1, high-dose multiple-dose study; endpoint = half-life median; result = 18.4 h
SMILES = COc1cccc(N2CCN(C3=Nc4c(F)cccc4[C@H](CC(=O)O)N3c3cc(C(F)(F)F)ccc3OC)CC2)c1; system = healthy women, plasma; setting = intravenous, 240 mg once daily, day 14; endpoint = AUC(tau) at steady state; result = 33.6 ± 6.73 µg·h/mL
SMILES = C[C@]12CC[C@@H]3c4ccc(O)cc4CC[C@H]3[C@@H]1C[C@@H](O)[C@@H]2O; test = GC-MS; system = breast cancer women on NSAI, serum; setting = vaginal, 0.03 mg daily, 3 h, day 28; endpoint = minimum serum concentration; result = 0 ng/mL
SMILES = OCCN(CCO)c1nc(N2CCCCC2)c2nc(N(CCO)CCO)nc(N3CCCCC3)c2n1; test = shake-flask; system = Captex 355; setting = 37 °C; endpoint = thermodynamic solubility; result = 0.14 ± 0.02 mg/g
SMILES = O=C(O)[C@H](c1ccccc1Cl)N1CCc2sccc2C1; test = HPLC-MS/MS; system = feline citrate plasma; setting = 24 h, 4 °C, storage stability; endpoint = deviation from nominal; result = 11%
SMILES = CCCC[C@H](NC(C)=O)C(=O)N[C@H]1CCC(=O)NC[C@@H](C(=O)N[C@@H](Cc2c[nH]c3ccccc23)C(N)=O)NC(=O)[C@H](CCCNC(=N)N)NC(=O)[C@@H](Cc2ccccc2)NC(=O)[C@H](Cc2c[nH]cn2)NC1=O; system = healthy volunteers, both sexes, plasma; setting = subcutaneous, 1.0 mg once daily, day 1; endpoint = median AUC(0-t); result = 0.0449 µg·h/mL
SMILES = O=c1cc(-c2ccc(O)cc2)oc2cc(O)cc(O)c12; test = mass spectrometry; system = Caco-2; setting = 40 µM, 6 h; endpoint = Papp A→B; result = 16.4 nm/s
SMILES = COc1cc(F)c(F)c(Nc2ccc(I)cc2F)c1NS(=O)(=O)C1(C[C@H](O)CO)CC1; system = human patients, plasma; setting = oral, 30 mg twice daily, cycle 1 day 14; endpoint = AUC(0-8 h); result = 3.3 µg·h/mL
SMILES = CS(=O)(=O)OC[C@H](O)[C@@H](O)COS(C)(=O)=O; system = Wistar rat, female, red blood cells; setting = intraperitoneal, 500 mg/kg, 4 h; endpoint = concentration in red blood cells; result = 90 µM and 70 µM
SMILES = CCOc1nc2cccc(C(=O)OC(C)OC(=O)OC3CCCCC3)c2n1Cc1ccc(-c2ccccc2-c2nnn[nH]2)cc1 (stereo not drawn); test = shake-flask; system = PEG400; setting = 37 °C; endpoint = thermodynamic solubility; result = 25.9 ± 0.86 mg/g
SMILES = OCCN(CCO)c1nc(N2CCCCC2)c2nc(N(CCO)CCO)nc(N3CCCCC3)c2n1; system = mouse, plasma; setting = oral, added: vincristine co-treatment; scale = reference: without vincristine; endpoint = apparent oral clearance; result = no effect
SMILES = CCCCCCCCC/C=C/C(=O)CCc1ccc(O)c(OC)c1; system = rat, small intestine site 4 contents; setting = oral, dose not given, 2 h, β-glucuronidase treated; scale = reference: ingested amount; endpoint = recovery; result = 0.15%
SMILES = CNC(=O)c1ccc(-c2cnn3ccc(C(=O)N(C[C@H]4CCC(=O)O4)c4ccc(OC(F)(F)F)cc4)cc23)cc1; system = female C57BL/6 mouse, plasma; setting = oral, 10 mg/kg; endpoint = AUC; result = 75 nM·h
SMILES = CC(C)(C)NC(=O)[C@@H]1C[C@@H]2CCCC[C@@H]2CN1C[C@@H](O)[C@H](Cc1ccccc1)NC(=O)[C@H](CC(N)=O)NC(=O)c1ccc2ccccc2n1; test = shake-flask; system = Captex 355; setting = 37 °C; endpoint = thermodynamic solubility; result = 7.09 ± 0.14 mg/g
SMILES = Oc1c(Br)cc(Cl)c2cccnc12; system = male Sprague-Dawley rats, heart; setting = intravenous, 5 mg/kg, 2 h; endpoint = concentration; result = 15.6 ± 4.2 ng/g
SMILES = CC1(C)C(/C=C/C=C/C=C/C=C2\N(CCCCS(=O)(=O)O)c3ccc4ccccc4c3C2(C)C)=[N+](CCCCS(=O)(=O)[O-])c2ccc3ccccc3c21; test = NIR fluorescence imaging; system = mouse, ear; setting = intravenous; endpoint = extravasation half-life; result = 6.5 min
SMILES = CN[C@H](CC(C)C)C(=O)N[C@H]1C(=O)N[C@@H](CC(N)=O)C(=O)N[C@H]2C(=O)N[C@H]3C(=O)N[C@H](C(=O)N[C@H](C(=O)O)c4cc(O)cc(O)c4-c4cc3ccc4O)[C@H](O)c3ccc(c(Cl)c3)Oc3cc2cc(c3O[C@@H]2O[C@H](CO)[C@@H](O)[C@H](O)[C@H]2O[C@H]2C[C@](C)(N)[C@H](O)[C@H](C)O2)Oc2ccc(cc2Cl)[C@H]1O; system = pig, plasma; setting = intravenous, 1000 mg, added: MIC 8 µg/mL; endpoint = time to reach MIC; result = 7 min

Repeated from above:
SMILES = O=C(O)[C@H](c1ccccc1Cl)N1CCc2sccc2C1; test = HPLC-MS/MS; system = feline citrate plasma; setting = 24 h, 4 °C, storage stability; endpoint = deviation from nominal; result = 11%
